Assay results gathered from unrelated publications.
± gives the spread as reported.

The tissue uptake of `CC(C)C[C@@H](NC(=O)[C@@H](CCCNC(=N)N)NC(=O)[C@@H](Cc1c[nH]cn1)NC(=O)[C@@H](Cc1c[nH]c2ccccc12)NC(=O)[C@@H](Cc1c[nH]cn1)NC(=O)[C@@H](Cc1ccccc1)NC(=O)[C@H](NC(=O)[C@@H](Cc1ccc(O)cc1)NC(=O)CNC(=O)CNC(=O)CCOCCOCCOCCNC(=O)CN1CCN(CC(=O)O)CCN(CC(=O)O)CC1)[C@H](C)O)C(=O)N[C@H](CC(N)=O)C(=O)N1CCC[C@@H]1C(=O)O` [gallium-68 labelled] is reported as 0.66 ± 0.28 %ID/g (C57BL/6 mice, male, muscle; intravenous, 1.85 MBq, 60 min, added: GP12 blocking).
With `CC[C@H](C)[C@H](NC(=O)[C@H](CCCNC(=N)N)NC(=O)[C@H](CCCCN)NC(=O)[C@H](Cc1ccc(O)cc1)NC(=O)[C@H](CC(=O)O)NC(=O)[C@H](C)NC(=O)CNC(=O)CCOCCOCCOCCNC(=O)CN1CCN(CC(=O)O)CCN(CC(=O)O)CCN(CC(=O)O)CC1)C(=O)N[C@H](C(=O)N[C@H](C(=O)N[C@@H](CCCCN)C(=O)N[C@H](C(=O)N[C@@H](CC(N)=O)C(N)=O)C(C)C)C(C)C)[C@@H](C)O` [copper-64 labelled] the tissue uptake was 0.114 ± 0.022 %ID/g (ex vivo gamma counting; C57BL/6J male mice, B16-F10 tumour, brain; intravenous, 1.85 MBq, 20 min).
`CC[C@H](C)[C@H](NC(=O)[C@H](CCCCN)NC(=O)CNC(=O)[C@H](CC(C)C)NC(=O)[C@H](Cc1ccccc1)NC(=O)[C@H](CCCCN)NC(=O)[C@H](CO)NC(=O)[C@H](Cc1ccccc1)NC(=O)[C@H](Cc1c[nH]c2ccccc12)NC(=O)[C@H](CCC(N)=O)NC(=O)[C@@H](NC(=O)[C@H](Cc1ccccc1)NC(=O)CCCCCNC(=O)CN1CCN(CC(=O)O)CCN(CC(=O)O)CCN(CC(=O)O)CC1)C(C)C)C(=O)N[C@@H](CCC(=O)O)C(=O)N1CCC[C@H]1C(=O)N[C@@H](CC(=O)O)C(=O)N[C@H](C(=O)N[C@@H](CO)C(=O)N[C@@H](CCC(N)=O)C(=O)N[C@H](C(=O)N[C@@H](CCC(N)=O)C(=O)N[C@@H](CC(=O)O)C(=O)N1CCC[C@H]1C(=O)N[C@@H](CC(N)=O)C(=O)N[C@@H](CC(=O)O)C(=O)N[C@@H](CCC(N)=O)C(=O)N[C@@H](Cc1ccc(O)cc1)C(=O)N[C@@H](CCC(=O)O)C(=O)N1CCC[C@H]1C(=O)N[C@@H](Cc1ccccc1)C(=O)O)C(C)C)C(C)C` [copper-64 labelled] has a tissue uptake of 16.9 ± 1.1 %ID/g (C57BL/6 mice, male, tumour-free, liver; 0.5 h).
For `CC[C@H](C)[C@H](NC(=O)[C@H](CCCNC(=N)N)NC(=O)[C@H](CCCCN)NC(=O)[C@H](Cc1ccc(O)cc1)NC(=O)[C@H](CC(=O)O)NC(=O)[C@H](C)NC(=O)CNC(=O)CCOCCOCCOCCNC(=O)CN1CCN(CC(=O)O)CCN(CC(=O)O)CCN(CC(=O)O)CC1)C(=O)N[C@H](C(=O)N[C@@H](CC(C)C)C(=O)N[C@@H](CCCCN)C(=O)N[C@H](C(=O)N[C@@H](CC(N)=O)C(N)=O)C(C)C)[C@@H](C)O` [copper-64 labelled], the tissue uptake was 1.27 ± 0.428 %ID/g (ex vivo gamma counting; C57BL/6J male mice, B16-F10 tumour, spleen; intravenous, 1.85 MBq, 100 min).
With `[2H]C([2H])([18F])[C@]([2H])(N)C(=O)O` the tissue uptake was 1.1 ± 0.11 %ID/cc (PET; athymic nude mice, U-87 MG, muscle; dose not given, 30 min post-injection).
With `CSCC[C@H](NC(=O)CNC(=O)[C@H](CCCCN)NC(=O)[C@H](CC(C)C)NC(=O)[C@@H]1CCCN1C(=O)[C@H](CO)NC(=O)[C@H](Cc1c[nH]cn1)NC(=O)[C@H](Cc1c[nH]c2ccccc12)NC(=O)[C@H](CCCNC(=N)N)NC(=O)[C@H](CC(C)C)NC(=O)[C@H](CCCNC(=N)N)NC(=O)[C@H](Cc1c[nH]c2ccccc12)NC(=O)[C@H](CS)NC(=O)CCCCCNC(=O)CN1CCN(CC(=O)O)CCN(CC(=O)O)CCN(CC(=O)O)CC1)C(=O)O` [copper-64 labelled] the tissue uptake was 2.78 ± 0.22 %ID/g (PET imaging; BALB/c nude mice, tumor; intravenous, dose not given, 9 h, Huh-7 tumour-bearing).
For `CCCC[C@H]1C(=O)N(C)[C@@H](CCCC)C(=O)N[C@@H](CCCNC(=O)CN2CCN(CC(=O)O)CCN(CC(=O)O)CCN(CC(=O)O)CC2)C(=O)N[C@H](C(=O)NCC(N)=O)CSCC(=O)N[C@@H](Cc2ccc(O)cc2)C(=O)N(C)[C@@H](C)C(=O)N[C@@H](CC(N)=O)C(=O)N2CCC[C@H]2C(=O)N[C@@H](Cc2c[nH]cn2)C(=O)N[C@@H](CC(C)C)C(=O)N(C)CC(=O)N[C@@H](Cc2c[nH]c3ccccc23)C(=O)N[C@@H](CO)C(=O)N[C@@H](Cc2c[nH]c3ccccc23)C(=O)N1C` [gallium-68 labelled], the tissue uptake was 1.52 ± 1.02 %ID/g (NOD/SCID mice with CHO-hPD-L1 xenograft, pancreas; 120 min post injection).
`C[C@H](O)[C@@H](NC(=O)[C@H]1CCCN1C(=O)[C@@H](CCCCN)NC(=O)[C@@H](CO)NC(=O)[C@@H](Cc1ccc(O)cc1)NC(=O)[C@@H](CC(N)=O)NC(=O)CCOCCOCCOCCNC(=O)CN1CCN(CC(=O)O)CCN(CC(=O)O)CCN(CC(=O)O)CC1)C(=O)N[C@H](CC(=O)O)C(=O)N[C@H](CCCNC(=N)N)C(=O)N[C@H](CCC(N)=O)C(=O)N[C@H](Cc1ccc(O)cc1)C(=O)N[C@H](Cc1c[nH]cn1)C(=O)N[C@H](Cc1ccccc1)C(N)=O` [gallium-68 labelled] has a tissue uptake of 0.85 ± 0.51 %ID/g (BALB/c nude mice U-87 MG tumour, bone; intravenous, 1.85 MBq, 0.5 h, radiolabelled).
The tissue uptake of `CC[C@H](C)[C@H](NC(=O)[C@@H](Cc1c[nH]c2ccccc12)NC(=O)[C@@H]1CCCN1C(=O)[C@H](CCCCN)NC(=O)[C@H](CCCCN)NC(=O)CCNC(=O)CCNC(=O)CN1CCN(CC(=O)O)CCN(CC(=O)O)CCN(CC(=O)O)CC1)C(=O)N[C@@H](C[Si](C)(C)C)C(=O)O` [gallium-68 labelled] is reported as 0.36 ± 0.1 %ID/g (ex vivo biodistribution; nude mice, HT-29 xenograft, salivary glands; 90 min, added: levocabastine 0.5 µmol).
